Measured values of several laboratories.
Compare with care: the assays were run in different laboratories. “And” joins repeats or separate records; there may be more than shown. Numbers after ± are the reported error. ≈ marks a conversion by molar mass, not a printed value.
UniProt P48029, sequence (whole entry, unmodified, looked up): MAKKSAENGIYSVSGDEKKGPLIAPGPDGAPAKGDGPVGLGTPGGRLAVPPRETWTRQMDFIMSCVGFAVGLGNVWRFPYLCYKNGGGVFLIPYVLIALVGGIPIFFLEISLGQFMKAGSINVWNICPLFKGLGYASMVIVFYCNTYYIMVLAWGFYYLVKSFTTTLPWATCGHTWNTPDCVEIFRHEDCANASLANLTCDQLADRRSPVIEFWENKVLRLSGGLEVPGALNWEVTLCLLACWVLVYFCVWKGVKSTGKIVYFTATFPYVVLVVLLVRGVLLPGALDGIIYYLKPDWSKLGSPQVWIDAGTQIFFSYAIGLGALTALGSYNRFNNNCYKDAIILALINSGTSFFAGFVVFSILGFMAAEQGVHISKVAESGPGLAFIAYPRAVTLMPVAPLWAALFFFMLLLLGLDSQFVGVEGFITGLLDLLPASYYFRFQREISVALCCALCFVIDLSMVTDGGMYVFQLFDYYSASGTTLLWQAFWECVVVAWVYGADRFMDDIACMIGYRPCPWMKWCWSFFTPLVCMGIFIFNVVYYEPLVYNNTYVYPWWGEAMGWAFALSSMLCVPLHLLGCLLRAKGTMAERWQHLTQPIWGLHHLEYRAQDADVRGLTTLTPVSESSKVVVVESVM

For `CCCCCCCCCCCCCC(=O)Nc1ccccc1SSc1ccccc1NC(=O)CCCCCCCCCCCCC`, the viability was 100% (HaCaT; cell growth or viability, MTT; 20 mg/mL, 24 h).
`CC(=O)N[C@H](C(=O)N[C@H](C(=O)N[C@@H](CCCNC(=N)N)C(=O)N1Cc2ccccc2C[C@H]1C(=O)N[C@@H](Cc1ccccc1)C(N)=O)C1CCCCC1)C(C)C` gave a cytokine level of 6.9 ± 3.3 pg/mL (human PBMC; Bio-Plex multiplex, item: IL-2; 250 µg/mL, 24 h).
For `CC(C)=CCCC(C)=CCc1cc(-c2coc3cc(OC4OC(C(=O)O)C(O)C(O)C4O)ccc3c2=O)ccc1O` (stereo not shown), “substrate inhibition Ki” read 18200 ± 4510 nM (glucuronidation, substrate; pooled human liver microsomes).
For `O=C(O)CCC(NP(=O)(O)OCCC[C@@H](NC(=O)CC[C@H](NC(=O)CCCCCNC(=O)c1ccc([18F])cc1)C(=O)O)C(=O)O)C(=O)O` (stereo partly shown), the tracer uptake was 0.036 %ID/g (CWR22Rv1 tumour model; host not given, muscle; 4 h, tumour-bearing).
The tissue uptake of `CCCC[C@@H]1NC(=O)[C@@H](NC(=O)[C@H](CCC(=O)O)NC(=O)CNC(=O)CN2CCN(CC(=O)O)CCN(CC(=O)O)CCN(CC(=O)O)CC2)CCCCNC(=O)C[C@@H](C(N)=O)NC(=O)[C@H](C(C)C)NC(=O)[C@@H]2CCCN2C(=O)[C@H](CCCNC(=N)N)NC(=O)CNC(=O)[C@H](Cc2c[nH]c3ccccc23)NC(=O)[C@H](CCCNC(=N)N)NC(=O)[C@@H](Cc2ccccc2)NC(=O)[C@H](Cc2c[nH]cn2)NC(=O)[C@H](CCC(=O)O)NC1=O` [gallium-67 labelled] is reported as 0.07 ± 0.01 %ID/g (C57 mice, B16/F10 lung metastases, muscle; intravenous, 0.037 MBq/mouse, 2 h).
For `[64Cu+2].c1ccc(CNCc2ccc(CN3CCCN4CCNCCCN(CC4)CC3)cc2)nc1`, the tissue uptake was 1.82 ± 0.26 %ID/g (CXCR4; NOD/SCID mouse, U87 and U87-stb-CXCR4 xenografts, blood; iv, 480 min, ex vivo).
`COc1cc(O)c(-c2c(O)cc(OC)c3c2ccc2cc(O)ccc23)c2ccc3ccccc3c12` gave a viability of 104% (BV-2; cell growth or viability, MTT; 5 µM, 24 h).
With `C=C(c1ncc(C(=O)O)cn1)c1cc2c(cc1C)C(C)(C)CCC2(C)C` the blood triglycerides was 193 ± 77.3 mg/dL (Sprague-Dawley rat, male; oral, 100 mg/kg, 24 h, sesame oil vehicle).
`COc1ccc(F)cc1CC1(NC(=O)c2cc(N3C[C@@H](C)O[C@H](C)C3)ccn2)CC1` has an EC50 of 1000 nM and ~1000 nM (SLC6A8 (Homo sapiens, UniProt P48029, P544L); creatine transport rescue; U-2 OS P544L knock-in; 24 h).
`CCCCCCCCCCCC(=O)Nc1ccccc1SSc1ccccc1NC(=O)CCCCCCCCCCC` has a viability of 100% (HaCaT; cell growth or viability, MTT; 5 mg/mL, 24 h).
For `O=C1CCN(Cc2ccccc2)CC1C(C[N+](=O)[O-])c1ccccc1` (stereo not shown), “tail flick response” read 54.1% (tail immersion test; BALB/c mice; ip, 50 mg/kg, 1 h).
Under “concentration in mucosal solution”, `Cc1c(Cc2cc(C(C)(C)C)c(O)c(C(C)(C)C)c2)c(C)c(Cc2cc(C(C)(C)C)c(O)c(C(C)(C)C)c2)c(C)c1Cc1cc(C(C)(C)C)c(O)c(C(C)(C)C)c1` is recorded as 63.7 ± 5.1 µg/mL (Cyprinus carpio; everted gut sac; intestine; concentration not given, 24 h, 23 °C).
Under “alpha rate constant”, `N=C(N)NCCC[C@@H]1NC(=O)[C@H](Cc2c[nH]c3ccccc23)NC(=O)[C@@H](CC2CCCCC2)NC(=O)[C@@H]2CCCN2C(=O)[C@@H](NC(=O)CCc2ccccc2)CCCNC1=O` is recorded as 27.1 h⁻¹ (two-compartment model; C57BL/6J mice, brain; intravenous, 1 mg/kg).
For `[64Cu+2].c1cnc(CNCc2ccc(CN3CCCN4CCNCCCN(CC4)CC3)cc2)nc1`, the tissue uptake was 8.12 ± 0.61 %ID/g (CXCR4; NOD/SCID mouse, U87 and U87-stb-CXCR4 xenografts, lungs; iv, 60 min, ex vivo).
With `CCCC[C@H](NC(=O)CNC(=O)CNC(=O)CN1CCN(CC(=O)O)CCN(CC(=O)O)CCN(CC(=O)O)CC1)C(=O)N[C@H]1CC(=O)NCCCC[C@@H](C(N)=O)NC(=O)[C@H](Cc2c[nH]c3ccccc23)NC(=O)[C@H](CCCNC(=N)N)NC(=O)[C@@H](Cc2ccccc2)NC(=O)[C@H](Cc2c[nH]cn2)NC1=O` [lutetium-177 labelled] the tissue uptake was 0.78 ± 0.08 %ID/g (C57 mouse, female, liver; intravenous, 0.037 MBq, 4 h).
With `O=C(O)[C@@H]1C[C@@H](O)CN1C(=O)[C@@H]1CCCN1` the −ΔG was 32.4 kcal/mol (iron(III) ion; complex formation, from log β; aqueous 0.15 M NaCl; 25 °C, MA2 complex species).
The tissue uptake of `N=C(N)NCCC[C@@H]1NC(=O)[C@H](CCCCNC(=O)CC[C@H](NC(=O)CC[C@H](NC(=O)CN2CCN(CC(=O)O)CCN(CC(=O)O)CCN(CC(=O)O)CC2)C(=O)N[C@@H](CCC(=O)NCCCC[C@@H]2NC(=O)[C@@H](Cc3ccccc3)NC(=O)[C@H](CC(=O)O)NC(=O)CNC(=O)[C@H](CCCNC(=N)N)NC2=O)C(=O)NCCCC[C@@H]2NC(=O)[C@@H](Cc3ccccc3)NC(=O)[C@H](CC(=O)O)NC(=O)CNC(=O)[C@H](CCCNC(=N)N)NC2=O)C(=O)NCCCC[C@@H]2NC(=O)[C@@H](Cc3ccccc3)NC(=O)[C@H](CC(=O)O)NC(=O)CNC(=O)[C@H](CCCNC(=N)N)NC2=O)NC(=O)[C@@H](Cc2ccccc2)NC(=O)[C@H](CC(=O)O)NC(=O)CNC1=O` [indium-111 labelled] is reported as 0.92 ± 0.46 %ID/g (female athymic nu/nu mice, eyes; intravenous, 4 h).
For `N#CCc1cccc(Cl)c1-c1ccc2[nH][11c](=O)[nH]c2c1`, “brain uptake increase” read 204% (P-glycoprotein and Bcrp; ex vivo brain uptake; mouse; injection, 30 min, together with: tariquidar; baseline: without tariquidar).
`N=C(N)NCCC[C@@H]1NC(=O)[C@H](CCCCNC(=O)CNC(=O)CNC(=O)CNC(=O)CC[C@H](NC(=O)CNC(=O)CNC(=O)CNC(=O)CN2CCN(CC(=O)O)CCN(CC(=O)O)CCN(CC(=O)O)CC2)C(=O)NCC(=O)NCC(=O)NCC(=O)NCCCC[C@@H]2NC(=O)[C@@H](Cc3ccccc3)NC(=O)[C@H](CC(=O)O)NC(=O)CNC(=O)[C@H](CCCNC(=N)N)NC2=O)NC(=O)[C@@H](Cc2ccccc2)NC(=O)[C@H](CC(=O)O)NC(=O)CNC1=O` [indium-111 labelled] has a tissue uptake of 2.25 ± 0.04 %ID/g (female athymic nu/nu mice, liver; intravenous, 1 h).
`COc1cc(CCC(C)=O)ccc1O` gave an IC50 of 0.381 µg/mL (≈ 1.96 µM) (mouse mAb 1-F12; antibody binding, indirect competitive ELISA; together with: coating antigen 4-OVA).
With `COc1cc(O)cc2c1-c1ccc(O)c(OC)c1CC2` the viability was 104% (BV-2; cell growth or viability, MTT; 5 µM, 24 h).
The intracellular concentration of `Nc1ccccc1C(=O)NS(=O)(=O)NC[C@H]1O[C@@H](n2cnc3c(N)ncnc32)[C@H](O)[C@@H]1O` is reported as 20 to 30 µM (Pseudomonas aeruginosa; LC-MS/MS of lysate; PA14, LB medium; 1000 µM, 30 min, OD600 0.5).
Under “subjects with TEAE”, `Cn1c(=O)oc2ccc(-c3ccc(CC(C#N)NC(=O)C4CNCCCO4)c(F)c3)cc21` (stereo not shown) is recorded as 0% (item: anaemia; human; 60 mg single dose, fasted).
Under “log stability constant”, `NC(=S)N/N=C/c1cc(Cl)ccc1O` is recorded as 16.6 (Mn2+ complex; potentiometric titration; 25 °C).
`CCCCC/C=C/C(=O)CCc1ccc(O)c(OC)c1` has an IC50 of 0.975 µg/mL (≈ 3.53 µM) (mouse mAb 1-F12; antibody binding, indirect competitive ELISA; together with: coating antigen 1-OVA).

For quick reference, copied from above:
For `O=C(O)CCC(NP(=O)(O)OCCC[C@@H](NC(=O)CC[C@H](NC(=O)CCCCCNC(=O)c1ccc([18F])cc1)C(=O)O)C(=O)O)C(=O)O` (stereo partly shown), the tracer uptake was 0.036 %ID/g (CWR22Rv1 tumour model; host not given, muscle; 4 h, tumour-bearing).
